# Assay results pooled from the literature.
# Every numbered part comes from another study and shows a few of its results, in no order.

# Sample 1
# Target: RING finger protein unkempt homolog, zinc fingers 1-6, GST-SBP tag (UNK, Homo sapiens, UniProt Q9C0B0, residues 30-357)
# UniProt Q9C0B0, sequence (30-357, looked up): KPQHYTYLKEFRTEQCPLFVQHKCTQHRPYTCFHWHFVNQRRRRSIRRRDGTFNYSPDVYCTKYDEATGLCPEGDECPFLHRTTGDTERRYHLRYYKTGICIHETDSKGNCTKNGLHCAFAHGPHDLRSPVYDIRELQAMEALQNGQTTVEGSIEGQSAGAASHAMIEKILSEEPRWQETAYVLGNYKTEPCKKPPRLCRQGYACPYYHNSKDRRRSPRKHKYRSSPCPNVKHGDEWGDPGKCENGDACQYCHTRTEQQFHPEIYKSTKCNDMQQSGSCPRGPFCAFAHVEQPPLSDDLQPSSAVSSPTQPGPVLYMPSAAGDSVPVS
# Method: RNA Bind-n-Seq
# Molecule type: RNA
# Matrix: in vitro
# Concentration: not given
# Setting: RNA with constant flanks, human and mouse sites, ends assumed
# Reference: input RNA pool
# Reading: higher = stronger binding
# All sequences stand within: GGGAGUUCUACAGUCCGACGAUC … CAACAGAGGAUUGAGCAUCA
Oligonucleotide,bound/input enrichment [ratio]
GCCUGUGCCCCCAACAAAGAUGUGGCAGACUGCCUGGCCUUGAUCCUUUCCACCAUGAAGCCUUUCCCACCCAAGGACGCCGUCAGUCCUUUCAGCUUCAGCCUGCUCAAGAACUGCAGC,0.286
CUGGAUAAUGCCGCAGAAGCAGCUGAACAAUUUAAAUUAAUCCAAGCAGCAUAUGAUGUGUUGAGUGACCCUCAGGAAAGAGCAUGGUAUGAUAAUCAUAGAGAGGCCCUACUUAAAGGU,0.39
AUCCCACUGAAAGAUUUAAAGUAUUAUAGAUGUAUCUUGUUAAUUCCUGAUAUCUAUAAUAAGCAGCAUGUGAAAGAACUAGUGAAUAUGAUACUAAUGAAGAUGGGUUUUUCAGGGAUU,1.59
CAGGGAGAUCAGAUCUUAUCUGUGAAUGGGGAGGACAUGAGAAAUGCCUCACAGGAGACAGUGGCCACCAUCCUCAAGUGUGCACAGGGACUUGUGCAGCUAGAGAUUGGAAGACUCCGA,0.134
CCGCCUAGUGGGCUAUAUCUGCAACUUGAAGGGAAGAUAAAAGAAACAUCUUCUUUGGAAUAGAUGGGAAUUUUUUUCACUUUCUGUGAACUAAAGCGAUUCAAUGUCUCUUUUGGAUUG,0.174
CAGGUACAAGAGCAGAAGGCACAUCUUAGAGCUGCACAAGACCGUGUCCUUUCCCUAGAAACUAGUGUCAAUGAAUUAAAUAGUCAAUUAAAUGAAAGCAAGGAGAAGGUCUCCCAGCUU,230
CAGCACCCCAUCAAACCAGUGGUUCAUCCAACCGCUACCCCAAGCACUGUUCCUUCUAGUCCAUUUACGCUUCAGUCUGAUCACCAGCCAAAGAAAUCAUUUGAUGCUAAUGGAGCAUCU,0.488

# Sample 2
# Target: Prothrombin, mature alpha-thrombin (F2, Homo sapiens, UniProt P00734)
# Method: aptamer microarray, sandwich
# Molecule type: DNA with 2'F-ANA
# Matrix: in vitro
# Concentration: 200 nM
# Setting: whole 15-mer aptamer, many near background
# Together with: Cy3 exosite-II aptamer, 400 nM
# Reading: higher = stronger binding
# Oligonucleotide: GGTTGGTGTGGTTGG
Modification,mean fluorescence intensity [a.u.]
2'F-ANA at 1 2 5 8 10 11 14,43.5
2'F-ANA at 1 3 4 7 9 11,157
2'F-ANA at 2 4 8 9 10 14,73.4
2'F-ANA at 1 2 7 9 12 13 14,84.4
2'F-ANA at 1 2 4 5 6 8 14,46.7
2'F-ANA at 12 13 14 15,254

# Sample 3
# Target: Histone acetyltransferase KAT6A, winged helix 2, GST fusion (KAT6A, Homo sapiens, UniProt Q92794, residues 85-181)
# Method: protein binding microarray
# Molecule type: double-stranded DNA, one strand shown
# Matrix: in vitro
# Concentration: not given
# Setting: 8-mer, flanks averaged, mean of 2 arrays, mostly near background
# Reference: not given
# Reading: higher = stronger binding
# Target sequence (chain): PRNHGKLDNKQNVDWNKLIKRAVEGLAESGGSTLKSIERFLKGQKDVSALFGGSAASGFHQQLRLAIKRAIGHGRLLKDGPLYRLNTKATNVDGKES
Oligonucleotide,E-score
CAGGTGAC,-0.126
TGAGAAAA,-0.00434
GCTCTATA,-0.135
CCCCGACC,0.13

# Mixed results
Molecule,tested on,test,test system,conditions,scale,endpoint,result
"HSPA5 (Homo sapiens, UniProt P11021)","CEP112 (Homo sapiens, UniProt Q8N8E3)",cross-linking MS,cells,together with: BSPNO,,cross-linked residues,K138 to K528
"PhoQ, residues 284 288 289 292 302 303 ALSMDL","PhoP, residues 12 14 15 18 19 GQALL (Escherichia coli, UniProt P23836)","Sort-seq, item: YFP reporter",E. coli,"PhoQ-PhoP variant library, together with: 10 µM Mg2+","reference: high Mg2+ state, higher = stronger signaling",fold induction,10.1

# A few entries again (sample 3):
Oligonucleotide,E-score
TGAGAAAA,-0.00434
GCTCTATA,-0.135
CCCCGACC,0.13
